Measured values collected from several papers.
Organism: Escherichia coli

| SMILES | test | test system | conditions | MIC |
| --- | --- | --- | --- | --- |
| CC1(C)C(NC(=O)C(=NOCC(=O)N2CC3CCCC3C2C(=O)O)c2csc(N)n2)C(=O)N1OS(=O)(=O)O (stereo not shown) | agar dilution | CDC 1001728, NDM-1 | – | 8 µg/mL |
| CC[C@H](C)[C@H](NC(=O)[C@H](Cc1c[nH]c2ccccc12)NC(=O)[C@H](CCCNC(=N)N)NC(=O)[C@@H]1CCCN1C(=O)[C@H](CCCNC(=N)N)NC(=O)[C@@H]1CCCN1C(=O)[C@H](CC(C)C)NC(=O)[C@H](Cc1ccc(O)cc1)NC(=O)[C@@H]1CCCN1C(=O)[C@@H]1CCCN1C(=O)[C@H](CCCCN)NC(=O)[C@H](CC(=O)O)NC(=O)[C@@H](N)C(C)C)C(=O)N[C@@H](CCCNC(=N)N)C(=O)N[C@H](CCCNC(=N)N)C(=O)N[C@H](C(=O)N[C@@H](Cc1ccc(O)cc1)C(=O)N[C@@H](CC(N)=O)C(=O)N[C@H](CCCNC(=N)N)C(N)=O)[C@@H](C)CC | broth microdilution | MC4100 | 18 h, 37 °C, 25% MHB2 | 32 µg/mL |
| c1ccc(CCNC2CCCc3c2[nH]c2ccc(C4CCCCC4)cc32)cc1 (stereo not shown) | broth microdilution | MB5746 efflux-deficient hyperpermeable | – | 2 µg/mL |
| CC(C)C[C@H](NC(=O)[C@@H](NC(=O)[C@H](CCCCN)NC(=O)[C@H](CCCCN)NC(=O)[C@H](CC(C)C)NC(=O)[C@H](Cc1c[nH]c2ccccc12)NC(=O)[C@H](CCCCN)NC(=O)[C@H](CC(C)C)NC(=O)[C@H](CC(C)C)NC(=O)[C@H](CCCCN)NC(=O)[C@H](CCCCN)NC(=O)[C@@H](N)C(C)C)C(C)C)C(N)=O | – | – | 24 h, 37 °C, Mueller-Hinton broth, KCl 4.5 mM | 64 µM |
| Cc1ccc2nc(C)c(C(=O)C(=O)N(C)C)n2c1 | microbial growth, broth dilution | – | – | > 128 µM |
| CC[C@H](C)[C@H](N)C(=O)N[C@@H](CCCNC(=N)N)C(=O)N[C@H](C(=O)N[C@@H](Cc1c[nH]c2ccccc12)C(=O)N[C@@H](CCCCN)C(=O)N[C@@H](CCCCN)C(=O)N[C@H](C(=O)N[C@H](C(=O)N[C@@H](CCCNC(=N)N)C(=O)N[C@@H](CCCCN)C(=O)N[C@@H](Cc1c[nH]c2ccccc12)C(=O)N[C@@H](CCCCN)C(=O)N[C@@H](C)C(=O)N[C@H](C(=O)N[C@@H](Cc1c[nH]c2ccccc12)C(=O)N[C@@H](Cc1c[nH]cn1)C(N)=O)[C@@H](C)CC)C(C)C)[C@@H](C)CC)C(C)C | broth dilution | ATCC 25922, Mueller-Hinton broth | 24 h, 37 °C | 12.5 µM |
| CC[C@H](C)[C@H](NC(=O)[C@@H](CCCNC(=N)N)NC(=O)[C@H](CCCNC(=N)N)NC(=O)[C@@H]1CCCN1C(=O)[C@@H]1CCCN1C(=O)[C@H](CCCCNC(=N)N)NC(=O)[C@@H]1CCCN1C(=O)[C@H](CCCNC(=N)N)NC(=O)[C@@H]1CCCN1C(=O)[C@H](CC(C)C)NC(=O)[C@H](Cc1ccc(O)cc1)NC(=O)[C@@H]1CCCN1C(=O)[C@@H]1CCCN1C(=O)[C@H](CCCCN)NC(=O)[C@H](CC(=O)O)NC(=O)[C@@H](N)C(C)C)C(=O)N[C@@H](Cc1ccc(O)cc1)C(=O)N[C@@H](CC(N)=O)C(=O)N[C@H](CCCNC(=N)N)C(N)=O | broth microdilution | BW25113 | 18 h, 37 °C, 25% MHB2 | 8 µg/mL |
| CC(C)C[C@@H](NC(=O)[C@@H](CC(C)C)NC(=O)[C@@H](CCCCN)NC(=O)[C@@H](CCCCNC(=O)[C@@H](CC(C)C)NC(=O)[C@@H](CC(C)C)NC(=O)[C@@H](CCCCNC(=O)[C@@H](CC(C)C)NC(=O)[C@@H](CCCCN)NC(=O)[C@@H](CCCCNC(=O)[C@@H](CC(C)C)NC(=O)[C@H](N)CCCCN)NC(=O)[C@@H](CC(C)C)NC(=O)[C@H](N)CCCCN)NC(=O)[C@@H](CC(C)C)NC(=O)[C@@H](CCCCN)NC(=O)[C@@H](CCCCNC(=O)[C@@H](CC(C)C)NC(=O)[C@H](N)CCCCN)NC(=O)[C@@H](CC(C)C)NC(=O)[C@H](N)CCCCN)NC(=O)[C@@H](CC(C)C)NC(=O)[C@@H](CC(C)C)NC(=O)[C@@H](CCCCNC(=O)[C@@H](CC(C)C)NC(=O)[C@@H](CCCCN)NC(=O)[C@@H](CCCCNC(=O)[C@@H](CC(C)C)NC(=O)[C@H](N)CCCCN)NC(=O)[C@@H](CC(C)C)NC(=O)[C@H](N)CCCCN)NC(=O)[C@@H](CC(C)C)NC(=O)[C@@H](CCCCN)NC(=O)[C@@H](CCCCNC(=O)[C@@H](CC(C)C)NC(=O)[C@H](N)CCCCN)NC(=O)[C@@H](CC(C)C)NC(=O)[C@H](N)CCCCN)C(N)=O | broth microdilution | Klebsiella pneumoniae blaOXA-48 | 20 h, 37 °C | 16 µg/mL |
| COc1c(NC(=O)c2ccc(NC(=O)[C@H](CC#N)NC(=O)c3ccc(NC(=O)/C(C)=C/c4ccc(O)cc4)cc3)c(OC)c2O)ccc(C(=O)Nc2ccc(C(=O)O)cc2)c1O | – | – | – | 0.002 µg/mL |
| CC(C)[C@H](NC(=O)[C@H](Cc1ccc(O)cc1)NC(=O)[C@H](CS)NC(=O)[C@@H](NC(=O)[C@H](CCCNC(=N)N)NC(=O)[C@H](Cc1ccccc1)NC(=O)[C@H](CS)NC(=O)[C@H](Cc1c[nH]c2ccccc12)NC(=O)[C@@H](N)CCCNC(=N)N)C(C)C)C(=O)NCC(=O)N[C@@H](Cc1ccccc1)C(=O)N[C@@H](CS)C(=O)N[C@@H](Cc1ccc(O)cc1)C(=O)N[C@@H](Cc1c[nH]c2ccccc12)C(=O)N[C@@H](CCCCN)C(=O)N[C@@H](CS)C(=O)N[C@@H](CCCNC(=N)N)C(=O)O | broth microdilution | K88 | – | 0.64 log10 µg/mL |
| CC[C@H](C)[C@H](NC(=O)[C@@H](CCCNC(=N)N)NC(=O)[C@H](CCCNC(=N)N)NC(=O)[C@@H]1CCCN1C(=O)[C@@H]1CCCN1C(=O)[C@H](CCCNC(=N)N)NC(=O)[C@@H]1CCCN1C(=O)[C@H](CCCNC(=N)N)NC(=O)[C@@H]1CCCN1C(=O)[C@H](CC(C)C)NC(=O)[C@H](Cc1cc(I)c(O)c(I)c1)NC(=O)[C@@H]1CCCN1C(=O)[C@@H]1CCCN1C(=O)[C@H](CCCCN)NC(=O)[C@H](CC(=O)O)NC(=O)[C@@H](N)C(C)C)C(=O)N[C@@H](Cc1ccc(O)cc1)C(=O)N[C@@H](CC(N)=O)C(=O)N[C@H](CCCNC(=N)N)C(N)=O | broth microdilution | BW25113 | 18 h, 37 °C, 25% MHB2 | 64 µg/mL |
| CCCCCCCC(=O)N[C@@H](CCN)C(=O)N[C@H](C(=O)N[C@@H](CCN)C(=O)N[C@H]1CCNC(=O)[C@H]([C@@H](C)O)NC(=O)[C@H](CCN)NC(=O)[C@H](CCN)NC(=O)[C@H](Cc2ccc(F)cc2)NC(=O)[C@@H](CC(C)C)NC(=O)[C@H](CCN)NC1=O)[C@@H](C)O | broth microdilution | mcr-1, colistin-resistant | – | 2 to 4 µg/mL |
| CC1(C)C(NC(=O)C(=NOC2(C(=O)O)CC2)c2csc(N)n2)C(=O)N1OS(=O)(=O)O (stereo not shown) | agar dilution | CDC 1001728, NDM-1 | – | 0.25 µg/mL |
| CCCC[C@H](NC(=O)[C@H](Cc1ccc(O)cc1)NC(=O)[C@@H]1CCCN1C(=O)[C@@H]1CCCN1C(=O)[C@H](CCCCN)NC(=O)[C@H](CC(=O)O)NC(=O)[C@@H](N)C(C)C)C(=O)N1CCC[C@H]1C(=O)N[C@@H](CCCNC(=N)N)C(=O)N1CCC[C@H]1C(=O)N[C@@H](CCCNC(=N)N)C(=O)N1CCC[C@H]1C(=O)N1CCC[C@H]1C(=O)N[C@@H](CCCNC(=N)N)C(=O)N[C@H](CCCNC(=N)N)C(=O)N[C@H](C(=O)N[C@@H](Cc1ccc(O)cc1)C(=O)N[C@@H](CC(N)=O)C(=O)N[C@H](CCCNC(=N)N)C(N)=O)[C@@H](C)CC | broth microdilution | ATCC 25922 | 18 h, 37 °C, 25% MHB2 | 8 µg/mL |
| C#CCOc1ccc(CN[C@@]2(C)C[C@H](O[C@H]3[C@H](Oc4c5cc6cc4Oc4ccc(cc4Cl)[C@@H](O)[C@@H](NC(=O)[C@@H](CC(C)C)NC)C(=O)N[C@@H](CC(N)=O)C(=O)N[C@H]6C(=O)N[C@H]4C(=O)N[C@H](C(=O)N[C@H](C(=O)O)c6cc(O)cc(O)c6-c6cc4ccc6O)[C@H](O)c4ccc(c(Cl)c4)O5)O[C@H](CO)[C@@H](O)[C@@H]3O)O[C@@H](C)[C@H]2O)cc1OC | broth microdilution | ATCC 25922 | 18 to 20 h | > 128 µg/mL |
| CC(C)[C@H](NC(=O)C(NC(=O)CC[C@H](N)C(=O)O)C(O)C(N)=O)C(=O)N(C)CC(=O)N[C@H](Cc1c[nH]c2ccc([N+](=O)[O-])cc12)C(=O)NC[C@@H]1NC(=O)[C@@H](Cc2c[nH]c3ccc([N+](=O)[O-])cc23)NC1=O (stereo partly shown) | – | MG1655 | 18 h, 37 °C | 100 µM |

Some of these lines once more:
| SMILES | test | test system | conditions | MIC |
| --- | --- | --- | --- | --- |
| CC1(C)C(NC(=O)C(=NOC2(C(=O)O)CC2)c2csc(N)n2)C(=O)N1OS(=O)(=O)O (stereo not shown) | agar dilution | CDC 1001728, NDM-1 | – | 0.25 µg/mL |
